Results of several laboratories.
Numbered parts are unrelated; each lists some results of a single study. Positions count from the first letter of the parent shown.

Block 1
Target: Histone acetyltransferase KAT6A, winged helix 1, GST fusion (KAT6A, Homo sapiens, UniProt Q92794, residues 1-85)
Method: protein binding microarray
Form: double-stranded DNA, one strand shown
Sample: in vitro
Concentration: not given
Setting: 8-mer, flanks averaged, mean of 2 arrays, mostly near background
Baseline: not given
Direction: higher = stronger binding
Residues (chain): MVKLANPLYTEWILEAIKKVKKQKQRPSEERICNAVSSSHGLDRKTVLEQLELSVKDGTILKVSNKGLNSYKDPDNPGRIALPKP
Sequence | E-score
ACTACGAG | -0.0668
TGAAGCAA | -0.221
TAATCTGA | -0.263
AGCCGGAC | 0.238
CTGGAGCC | 0.118
TGCTGAAA | -0.151
ATAATGGA | -0.0673
ATACTGTA | -0.0615
GTGTCAAC | -0.124
ATAATCGG | 0.0357
ATGCGCGG | 0.464
CTGCTATA | -0.0573
CCAGTCAA | -0.165
CATGCAAC | -0.136
ATTTGACG | 0.148
TGGGACCA | -0.206
ATTAGCGA | 0.112
CGAGACTA | -0.0706
TCGCAAAA | 0.0486
TCCACCGA | 0.00296
ATCAATGC | 0.0172
ATCGCCGA | 0.306
CAGGTGCC | -0.00021
CGATTCCG | 0.317
GTGCCTAA | -0.147

Block 2
Target: CCNA2, cyclin fold, Cln2 fusion (human)
Method: yeast growth competition, sequencing
Sample: yeast
Setting: weak parent motif
Baseline: not given
Direction: higher = stronger binding
Starting sequence: FOXM1 docking peptide (human); PHLARPIKVESPP
Change | normalised enrichment score
P1A | -0.681
H2A | -0.629
P6A | -0.236
V9A | -0.335
E10A | -0.487
P12A | -1.47

Block 3
Target: RING finger protein unkempt homolog, zinc fingers 1-6, GST-SBP tag (UNK, Homo sapiens, UniProt Q9C0B0, residues 30-357)
Chain of UniProt Q9C0B0 (30-357, looked up): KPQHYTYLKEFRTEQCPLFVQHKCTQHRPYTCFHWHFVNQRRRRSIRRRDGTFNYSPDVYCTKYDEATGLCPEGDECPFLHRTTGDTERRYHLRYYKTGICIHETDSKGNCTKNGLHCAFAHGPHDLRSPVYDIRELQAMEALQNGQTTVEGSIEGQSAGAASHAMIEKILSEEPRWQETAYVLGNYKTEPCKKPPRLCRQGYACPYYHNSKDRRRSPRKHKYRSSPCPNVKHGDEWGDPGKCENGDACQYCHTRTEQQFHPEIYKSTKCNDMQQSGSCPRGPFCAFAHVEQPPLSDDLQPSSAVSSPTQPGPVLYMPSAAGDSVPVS
Method: RNA Bind-n-Seq
Form: RNA
Sample: in vitro
Concentration: not given
Setting: RNA with constant flanks, human-mouse chimeric sites, ends assumed
Baseline: input RNA pool
Direction: higher = stronger binding
All sequences stand within: GGGAGUUCUACAGUCCGACGAUC … CAACAGAGGAUUGAGCAUCA
Sequence | bound/input enrichment [ratio]
GGUGGGGUGGUCAUUGCCGUUUGAGCUCUGCUGAUUCAUGAGUCGCCUUCAAAACUCUCGUGUAGGGUUGACACUGUGGGGGGGUGGGGGAUCCAGCUUAUUCUUUUAUUUUCAAGUCCA | 1.04
CUGGCCUGGCCCUCCCCUCUAGUGACCUUUCGUAUAGUCACUGCUUCUGCAUCAGAUACUUUCAGCUGCAACUCCCUGCAGGGUGGGGCACCCAUUUCAGGCAGAAGGUUUUGGUACCCU | 0.369
UCGGAUGCUGUGCUGGGUCACUUUUCAUAUCCUGAUCCUUCACAGUGGACAGAUGAAGAACUGGGAAUCCCUCCUGAUGACGAGGACUGACACUGUAGACUCAGCCUACGAGUAGGAGCA | 0.316
UCUUUAAAAAAAAAAUUACCUUUUCUGCAUAUUAUAGCCCUCCCAUAGAUCCACGUUCAAGCUCAAAGAGCAAAGGCUCCGCAAACAGCUCAAACAUCUGAUGAAGAAAGAUUUCUGAGA | 3.15
GAUAAGAAAAGCUUGUUGGAGACCCGCUUGCAUGUCACUGGUAGAGACCUGAGGUGUCAAAUAGCUGAAACUUUCGGAUUUCAAGAAAAUUACAUCAAAAUUGUCAUAAAUAAGAAGCAG | 0.529
AUAGAUGAAAUUGAUGUGGACCAGGAAGGAAUUGCUGAAAUGAUGCUGGAUGAAAAUGCUAUUGCUCAGGUCCCACGCCCUGGCACAUCUUUGAAGCUCCCUGGCACUAAUCAGACAGGA | 0.237
GAUAAGAAAAGCUUGUUGGAGACCCGAUUGCAUGUCACUGGUAGAGACCUGAGGUGUAAAAUAGCUGAAACUUUCGGAUUUCAAGAAAAUUACAUCAAGAUCGUAAUAAAUAAGAAACAG | 0.311
GCAGGAUCUUCUAAAUACCAGUGGGACAUUAUGAAAUCCCUUGGGCUGUCUGAUGAAGACAUAGUGAAGUUUUCUGAAGCAGAGCACUGGCUUGAUUAUUUCCCACCACUGGCCGUUCAG | 0.164
UCUUAACUUAUUCAUUUAACUUAUUUUUAUAGCUAGAUAAAUAUUGUUAGUCUUAGACAAUAGCUCACAUUUUUUGAAAAGCAUGCUCUCCCUGUCCAUUUGUCUUACAAUAACACUCAG | 27.2
UCUUAACUUAUUCAUUUCUUAUUUUUAUAUAGCUAGAUAAAUAUUGUUAGUCUUAGACAAUAGCUCACAUUUUUUGAGAAGCAUGCCCUCCCUGUCCAUUUGUCUUACAAUAACACUCAG | 92.2
AGAAUCUUGGGACUGUUUUACUUAAUUGGUCAUUGAUAGCUUAACAAACAUGGAGAUAAGAUUAGAAAUCUUGACAUCAACAGGUAUUAAGCAGAAAAAACCCUGGCCACGUGUCUCCUG | 0.129

Block 4
Target: UBE2B UBC core domain (UniProt P63146)
Chain of UniProt P63146 (whole entry, looked up): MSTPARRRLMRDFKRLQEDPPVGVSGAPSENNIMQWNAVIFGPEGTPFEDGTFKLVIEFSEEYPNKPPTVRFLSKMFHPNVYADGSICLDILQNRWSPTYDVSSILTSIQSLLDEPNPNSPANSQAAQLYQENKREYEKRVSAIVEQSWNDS
Method: yeast two-hybrid
Sample: yeast
Setting: mostly zero background
Baseline: not given
Direction: higher = stronger interaction
B1: TRIM8 RING domain (UniProt Q9BZR9); chain WKNCFEEELICPICLHVFVEPVQLPCKHNFCRGCIGEAWAKDSGLVRCPECNQAYNQKPGLE
B2: TRIM69 RING domain (UniProt Q86WT6); chain VIQDITMELHCPLCNDWFRDPLMLSCGHNFCEACIQDFWRLQAKETFCPECKMLCQYNNCTF
B3: RNF170 RING domain (UniProt Q96K19); chain TRQQFYTDMYCPICLHQASFPVETNCGHLFCGACIIAYWRYGSWLGAISCPICRQTVTLLLTVF
B4: ARK2C RING domain (UniProt Q6ZSG1); chain EGEESDTDEKCTICLSMLEDGEDVRRLPCMHLFHQLCVDQWLAMSKKCPICRVDIETQLGAD
B5: RC3H2 RING domain (UniProt Q9HBD1); chain QAAQWTEFLSCPICYNEFDENVHKPISLGCSHTVCKTCLNKLHRKACPFDQTAINTDIDVL
B6: IRF2BPL RING domain (UniProt Q9H1B7); chain SPMANSGPLCCTICHERLEDTHFVQCPSVPSHKFCFPCSRESIKAQGATGEVYCPSGEKCPLVGSNVP
Sequence | lacZ reporter activity
B1 (TRIM8 RING domain) | 0
B2 (TRIM69 RING domain) | 0
YWAMDSTFELCKICAESNKDVKIEPCGHLLCSCCLAAWQHSDSQTCPFCRCEIKGWEAVS (CBLC RING domain (UniProt Q9ULV8)) | 0
B3 (RNF170 RING domain) | 0
EDEVSDNSAECVVCLSDVRDTLILPCRHLCLCNTCADTLRYQANNCPICRLPFRALLQIR (RNF157 RING domain (UniProt Q96PX1)) | 0
QLRRLQEERTCKVCMDKEVSIVFIPCGHLVVCKDCAPSLRKCPICRSTIKGTVRTF (BIRC3 RING domain (UniProt Q13489)) | 0
B4 (ARK2C RING domain) | 0
RLTMMWEEVTCPICLDPFVEPVSIECGHSFCQECISQVGKGGGSVCPVCRQRFLLKNLRP (TRIM21 RING domain (UniProt P19474)) | 0
QHHELTSLFECPVCFDYVLPPILQCQAGHLVCNQCRQKLSCCPTCRGALTPSIRNL (SIAH2 RING domain (UniProt O43255)) | 0
DAIPSLSECQCGICMEILVEPVTLPCNHTLCKPCFQSTVEKASLCCPFCRRRVSSWTRYH (RNF168 RING domain (UniProt Q8IYW5)) | 0
B5 (RC3H2 RING domain) | 0
B6 (IRF2BPL RING domain) | 0
QLRRLQEERTCKVCMDKEVSVVFIPCGHLVVCQECAPSLRKCPICRGIIKGTVRTF (BIRC2 RING domain (UniProt Q13490)) | 0

Block 5
Target: Interferon regulatory factor 7, full length, phosphomimetic (IRF7, Homo sapiens, UniProt Q92985, residues 1-503, S471D/S472D/S475D/S476D/S477D/S483D/S484D/S487D)
Chain of UniProt Q92985 (whole entry, unmodified, looked up): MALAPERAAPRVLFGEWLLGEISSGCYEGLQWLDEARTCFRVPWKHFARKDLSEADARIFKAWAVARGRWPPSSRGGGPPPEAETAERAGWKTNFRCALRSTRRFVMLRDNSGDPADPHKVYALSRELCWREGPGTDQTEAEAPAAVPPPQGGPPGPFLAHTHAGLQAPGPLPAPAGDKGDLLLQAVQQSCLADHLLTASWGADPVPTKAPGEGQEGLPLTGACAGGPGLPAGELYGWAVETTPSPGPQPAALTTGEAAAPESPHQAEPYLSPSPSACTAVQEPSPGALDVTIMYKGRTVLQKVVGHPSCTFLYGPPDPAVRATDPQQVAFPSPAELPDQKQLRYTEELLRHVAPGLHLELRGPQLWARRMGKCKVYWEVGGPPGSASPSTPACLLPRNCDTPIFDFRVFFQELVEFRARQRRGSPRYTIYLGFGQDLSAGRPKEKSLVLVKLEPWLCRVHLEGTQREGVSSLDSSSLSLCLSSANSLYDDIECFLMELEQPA
Method: protein-binding microarray
Form: double-stranded DNA, one strand shown
Sample: in vitro
Concentration: 2200 nM top
Setting: 60-bp whole probe
With: salmon DNA 0.4 mg/ml
Baseline: random background probes
Direction: higher = stronger binding
All sequences stand within: GCCTAGCAC … GTCTTGATTCGCTTGACGCTGCTG
Sequence | fitted relative affinity
GTCTCTATCAAAAATACAAAAGTGCTA | -0.223 z-score
TTAGGTTTCCGTTCCGGTTAGTGCTAG | 4.43 z-score
TTAGAACTGAGTATCGATGAGTGCTAG | -0.57 z-score
GACGGTATCGGTTGCGGGACGTGCTAG | 0.276 z-score
GTCCCCTGTCGGGAGGTCAGGTGCTAG | -0.158 z-score
GACGGTATCCTACTGCTGACGTGCTAG | 0.588 z-score
GACGATAACAGTATCGAGACGTGCTAG | 0.101 z-score
GACGGTCTCCTACCGCTGACGTGCTAG | 0.123 z-score
GCCGATATCAGTTTCGAGACGTGCTAG | 3.96 z-score
GACGATTTCTGTTCCGAGACGTGCTAG | 2.87 z-score
GTAGGTCTCCTACTGCTTTAGTGCTAG | 0.23 z-score
TTAGATATCGGCTATCGATTAGTGCTA | -0.154 z-score
TGCTGTGTGCATCTATCTTAGTGCTAG | 0.226 z-score
TTAGATATCGGGTTTCGTTTAGTGCTA | 3.61 z-score
TTTACTTTCTATCTCTGTTTGTGCTAG | 6.88 z-score
GACGGACTGGACTGTCGGGACGTGCTA | -0.873 z-score
TTAGGTTTCAGTATCGGTTAGTGCTAG | 2.63 z-score
TGAGGTTTCGACTATCGGTTAGTGCTA | 2.87 z-score
GACTGTCTCGGTTTCGGGACGTGCTAG | 3.73 z-score
